Measured values gathered from unrelated publications.
Each line is one published result; not all experiments were run side by side. ± marks the error that the study gave.
UniProt P45983, sequence (whole entry, looked up): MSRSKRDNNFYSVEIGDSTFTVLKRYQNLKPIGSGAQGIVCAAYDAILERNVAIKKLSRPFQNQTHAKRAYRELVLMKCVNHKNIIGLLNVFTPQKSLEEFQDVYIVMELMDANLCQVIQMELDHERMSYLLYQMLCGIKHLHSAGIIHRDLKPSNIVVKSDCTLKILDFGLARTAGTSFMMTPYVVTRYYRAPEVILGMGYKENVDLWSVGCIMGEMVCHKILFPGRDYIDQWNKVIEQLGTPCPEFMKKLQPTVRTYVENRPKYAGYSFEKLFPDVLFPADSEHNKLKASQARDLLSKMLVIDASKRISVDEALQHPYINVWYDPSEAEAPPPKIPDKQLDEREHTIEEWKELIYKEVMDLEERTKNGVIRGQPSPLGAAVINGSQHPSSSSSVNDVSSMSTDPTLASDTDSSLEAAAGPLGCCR
UniProt Q5S007, sequence (whole entry, looked up): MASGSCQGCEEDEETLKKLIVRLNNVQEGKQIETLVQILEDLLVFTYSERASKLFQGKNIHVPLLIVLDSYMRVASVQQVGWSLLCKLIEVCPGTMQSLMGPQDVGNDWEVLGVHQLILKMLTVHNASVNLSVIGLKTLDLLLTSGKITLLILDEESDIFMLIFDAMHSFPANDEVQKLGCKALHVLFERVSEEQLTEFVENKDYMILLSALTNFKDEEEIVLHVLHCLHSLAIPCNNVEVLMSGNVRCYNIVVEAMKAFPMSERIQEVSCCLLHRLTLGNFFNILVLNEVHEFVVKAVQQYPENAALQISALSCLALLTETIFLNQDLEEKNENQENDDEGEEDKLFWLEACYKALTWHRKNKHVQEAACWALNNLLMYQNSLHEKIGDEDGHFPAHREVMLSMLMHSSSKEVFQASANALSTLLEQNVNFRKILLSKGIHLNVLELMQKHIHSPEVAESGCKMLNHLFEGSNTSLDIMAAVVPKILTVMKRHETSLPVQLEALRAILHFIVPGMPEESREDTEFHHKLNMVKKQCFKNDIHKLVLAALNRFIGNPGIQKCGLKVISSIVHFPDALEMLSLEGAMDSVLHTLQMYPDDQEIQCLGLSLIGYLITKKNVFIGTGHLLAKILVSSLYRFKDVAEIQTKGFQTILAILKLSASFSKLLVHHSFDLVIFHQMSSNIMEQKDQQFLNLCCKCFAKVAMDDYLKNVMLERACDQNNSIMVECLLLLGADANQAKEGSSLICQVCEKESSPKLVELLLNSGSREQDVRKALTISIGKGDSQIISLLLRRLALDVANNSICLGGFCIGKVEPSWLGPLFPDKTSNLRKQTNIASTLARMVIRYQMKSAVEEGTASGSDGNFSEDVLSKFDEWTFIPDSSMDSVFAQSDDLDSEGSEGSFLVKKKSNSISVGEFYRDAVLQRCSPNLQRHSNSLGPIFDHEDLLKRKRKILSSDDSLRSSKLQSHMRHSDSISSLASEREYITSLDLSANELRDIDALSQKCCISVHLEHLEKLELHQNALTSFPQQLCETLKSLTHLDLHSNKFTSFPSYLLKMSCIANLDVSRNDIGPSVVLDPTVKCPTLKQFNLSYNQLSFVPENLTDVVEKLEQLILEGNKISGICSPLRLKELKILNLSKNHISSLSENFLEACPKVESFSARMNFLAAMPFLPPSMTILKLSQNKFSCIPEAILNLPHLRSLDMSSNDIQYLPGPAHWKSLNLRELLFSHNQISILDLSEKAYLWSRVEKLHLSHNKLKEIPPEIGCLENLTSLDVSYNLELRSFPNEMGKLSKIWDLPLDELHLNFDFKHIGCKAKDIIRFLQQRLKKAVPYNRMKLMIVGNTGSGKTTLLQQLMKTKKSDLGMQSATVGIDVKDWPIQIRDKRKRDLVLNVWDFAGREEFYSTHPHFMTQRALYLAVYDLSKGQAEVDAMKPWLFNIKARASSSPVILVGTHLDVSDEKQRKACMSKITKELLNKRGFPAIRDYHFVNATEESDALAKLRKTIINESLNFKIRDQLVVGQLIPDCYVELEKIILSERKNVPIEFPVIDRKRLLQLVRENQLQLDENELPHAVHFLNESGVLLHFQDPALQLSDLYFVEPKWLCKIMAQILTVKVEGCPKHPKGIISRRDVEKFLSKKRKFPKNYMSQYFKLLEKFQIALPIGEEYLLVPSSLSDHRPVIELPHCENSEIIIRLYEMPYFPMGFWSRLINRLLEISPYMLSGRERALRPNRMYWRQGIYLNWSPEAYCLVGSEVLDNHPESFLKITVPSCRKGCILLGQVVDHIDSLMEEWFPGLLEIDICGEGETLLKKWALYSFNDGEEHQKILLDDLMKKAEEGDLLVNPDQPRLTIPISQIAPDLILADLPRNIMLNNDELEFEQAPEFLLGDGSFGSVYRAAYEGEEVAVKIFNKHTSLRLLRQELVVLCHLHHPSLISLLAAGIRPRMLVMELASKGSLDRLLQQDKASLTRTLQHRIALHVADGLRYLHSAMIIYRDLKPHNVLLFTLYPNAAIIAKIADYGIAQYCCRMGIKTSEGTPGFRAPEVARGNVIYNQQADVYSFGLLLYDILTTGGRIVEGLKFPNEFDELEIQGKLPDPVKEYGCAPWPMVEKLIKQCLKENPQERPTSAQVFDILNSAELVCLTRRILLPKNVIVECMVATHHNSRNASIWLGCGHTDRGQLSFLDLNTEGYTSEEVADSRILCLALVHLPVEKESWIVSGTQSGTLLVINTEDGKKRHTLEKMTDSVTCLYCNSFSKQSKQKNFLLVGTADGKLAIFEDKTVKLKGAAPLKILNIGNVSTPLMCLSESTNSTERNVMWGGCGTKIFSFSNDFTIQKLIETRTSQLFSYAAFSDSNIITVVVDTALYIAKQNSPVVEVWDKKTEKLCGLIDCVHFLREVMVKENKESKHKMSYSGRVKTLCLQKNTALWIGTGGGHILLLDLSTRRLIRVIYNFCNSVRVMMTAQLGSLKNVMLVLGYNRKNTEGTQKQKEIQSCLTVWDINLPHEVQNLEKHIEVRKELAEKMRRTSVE

| SMILES | tested on | test | test system | setting | how to read | measurement | value |
| --- | --- | --- | --- | --- | --- | --- | --- |
| Cc1nn(-c2cccc(N)c2)c(=O)c2cnc(Nc3ccc(N4CCNCC4)cc3)nc12 | LRRK2 (Homo sapiens, UniProt Q5S007) | kinase activity, inhibitor, SelectScreen kinase profiling | – | – | – | IC50 | > 10000 nM |
| CC(C)c1ccc(N(C)c2ccc3c(c2)OCC[C@H]3CNc2cnccc2C(=O)O)cc1 | G-401 | cell growth or viability, ATP luminescence | – | 7 days | – | IC50 | 4.45 nM |
| CCN(CC)CC(=O)Nc1cccc(-n2cc(-c3ccc4ccc(-c5cn(-c6cccc(NC(=O)CN(CC)CC)c6)nn5)cc4c3)nn2)c1 | RCC4 | PCR angiogenesis array, measured: TIMP2 | – | 5 x IC50, 4 h, normoxia | baseline: untreated | fold regulation | -1.25 fold |
| CCN(CC)CC#CCNc1ccnc2cc(Cl)ccc12 | Salmonella typhimurium | mini-Ames test | TA97a | 125.0 µg/well, without S9 | – | revertants per well | 5 |
| COC(=O)[C@@]1(Cc2ccccc2)C=C(C(=O)OC(C)(C)C)C(=O)CC1 | MAPK8 (Homo sapiens, UniProt P45983) | D-peptide binding, inhibitor, FP peptide displacement | – | 3.906 µM | lower is stronger displacement | fraction bound | 0.703 |
| Cc1ncsc1-c1ccc(C(C)NC(=O)C2CC(O)CN2C(=O)C(NC(=O)CCCCCCCCCCN2CCCC(Nc3ncc(Cl)c(Nc4ccccc4S(=O)(=O)C(C)C)n3)C2)C(C)(C)C)cc1 (stereo not drawn) | 22Rv1 | RNA-seq, measured: MAPK6-DT | – | concentration not given | baseline: DMSO | log2 fold change | -5.5 |
| COC1CN([C@H]2CC[C@H]([C@@]3(C)Oc4c(Cl)cc(C(=O)NCc5c(SC)cc(C)[nH]c5=O)c(C)c4O3)CC2)C1 | – | RNA-seq, measured: TRIM2 mouse homolog | mouse, HT-1376 xenograft, whole blood | dose not given | baseline: vehicle | log2 fold change | 1.01 |
| CC(C)=CCc1cc(C(=O)/C=C/c2ccc(O)cc2)c(O)cc1O | – | phase I metabolism, substrate | dog liver microsomes | – | – | Km | 1.58 ± 0.22 µM |
| C=CC(=O)Nc1cccc(Cn2ncc3cnc(Nc4cnn(CCOC)c4)nc32)c1 | human NIK | KINOMEscan | – | 100 nM | baseline: control | binding | 69% |
| Cn1ncc2cc(-c3cncc(Cl)c3N3CCC4(CCNC4=O)CC3)ccc21 | LS174T | gene expression, microarray, measured: SLC39A8 mRNA | – | concentration not given, 24 h | baseline: untreated cells | log2 fold change | -2.21 |
| Nc1ncc(-c2cc(-c3cnn(CC(F)(F)F)c3)ncc2F)nc1C(=O)NC1CNCC(F)C1 (stereo not drawn) | ROS1 | KINOMEscan | – | 1 µM | baseline: DMSO control | remaining binding | 26% |
| CN1CCCNC(=O)c2cccc(c2)C(=O)NCCCN(C)CCCNc2cccc3c2C(=O)c2cccc(c2C3=O)NCCC1 | SAS | RNA-Seq, measured: ATP1B3 mRNA | – | 1 µM, 24 h | baseline: untreated cells | log2 fold change | -2.14 |
| CC(C)OCCOCc1ccc(OCC(O)CN(N=O)C(C)C)cc1 (stereo not drawn) | Salmonella typhimurium | Ames test | TA1535 | 15.8 µg/plate, without metabolic activation | baseline: solvent control | revertant fold increase | 0.8 fold |
| C=C(NC(=O)c1csc(-c2nc3c(cc2O)-c2nc(cs2)C(=O)NC(C(C)O)C(=O)NC(=C(C)OC)c2nc(cs2)C(=O)NC2c4nc(cs4)C(=O)NC(COC(=O)c4c5c6c(cccc6n4O)COC(=O)C(OC4CC(C)(O)C(N(C)C)C(C)O4)C2OC5)c2nc-3cs2)n1)C(N)=O (stereo not drawn) | Streptococcus pneumoniae | – | -4, immunocompromised mice, lung | 16 mg/kg/day thrice daily, 24 h post-dose | – | lung bacterial load | 4.16 log10 CFU/lung |
| CNS(=O)(=O)Nc1nccc(Cc2c(C)c3ccc(Oc4ncccc4F)cc3oc2=O)c1F | CAL-148 | cell viability | – | 7 days | – | IC50 | > 1000 nM |

For quick reference, copied from above:
| SMILES | tested on | test | test system | setting | how to read | measurement | value |
| --- | --- | --- | --- | --- | --- | --- | --- |
| COC(=O)[C@@]1(Cc2ccccc2)C=C(C(=O)OC(C)(C)C)C(=O)CC1 | MAPK8 (Homo sapiens, UniProt P45983) | D-peptide binding, inhibitor, FP peptide displacement | – | 3.906 µM | lower is stronger displacement | fraction bound | 0.703 |
| Cc1ncsc1-c1ccc(C(C)NC(=O)C2CC(O)CN2C(=O)C(NC(=O)CCCCCCCCCCN2CCCC(Nc3ncc(Cl)c(Nc4ccccc4S(=O)(=O)C(C)C)n3)C2)C(C)(C)C)cc1 (stereo not drawn) | 22Rv1 | RNA-seq, measured: MAPK6-DT | – | concentration not given | baseline: DMSO | log2 fold change | -5.5 |
